Results of several laboratories.
± marks the error that the study gave.
UCHL1: Ubiquitin carboxyl-terminal hydrolase isozyme L1 (UCHL1, Homo sapiens, UniProt P09936)
UniProt P09936, sequence (whole entry, looked up): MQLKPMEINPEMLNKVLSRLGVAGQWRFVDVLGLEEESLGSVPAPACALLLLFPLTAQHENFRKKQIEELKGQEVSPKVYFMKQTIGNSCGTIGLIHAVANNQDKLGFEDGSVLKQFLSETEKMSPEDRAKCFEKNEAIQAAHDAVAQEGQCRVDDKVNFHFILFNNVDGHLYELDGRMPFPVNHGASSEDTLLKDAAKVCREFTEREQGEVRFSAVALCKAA

Under “point of departure”, `CN(CCOc1ccc(CC2SC(=O)NC2=O)cc1)c1ccccn1` (stereo not shown) is recorded as 3.89 µM (HepG2; TMRE, refers to: mitochondrial membrane potential; 24 h, distribution mode 1).
The toxicity of `CC(=O)c1nn(-c2ccc(Cl)cc2)/c(=N/N=C(\C)c2ccc(NC(=O)c3ccc(Cl)cc3)cc2)s1` is reported as 3.91% (HepG2; 1.25 µM).
Under “point of departure”, `COC(=O)[C@]12CCC(C)(C)C[C@H]1[C@H]1C(=O)C=C3[C@@]4(C)C=C(C#N)C(=O)C(C)(C)[C@@H]4CC[C@@]3(C)[C@]1(C)CC2` is recorded as 0.0437 µM (HepG2; high content imaging, refers to: DNA structure; 24 h, distribution mode 1).
`COCC(=O)N1CCC[C@H](C(=O)NCc2nc(-c3ccc(-c4ccccc4)cc3)cs2)C1` has an EC50 of 18 µM (HepG2; cytotoxicity).
The selectivity index of `CCn1c(C)c(N=Nc2ccc(C)cc2)sc1=NN=C(C)c1c(O)c2ccccc2oc1=O` is reported as greater than 1.22 (HepG2; cell growth, MTT; reference: IC50 BJ-1 over HepG2).
For `CCOC(=O)N1CCC(CN(Cc2ccc(Cl)cc2)Cc2ccc([N+](=O)[O-])s2)C1` (stereo not shown), “decrease of effect” read 63% (HepG2; qPCR, refers to: BMAL1 mRNA; concentration not given; reference: REV-ERBα/β siRNA over control siRNA).
With `CCOC(=O)c1cccc(NC(=O)c2sccc2S(=O)(=O)N(C)c2cccc(OCC)c2)c1` the EC50 was 31 µM (HepG2; SRE promoter reporter, activator, luciferase reporter).
`Nc1ccn([C@H]2CC[C@@H](CO)O2)c(=O)n1` — result for “mitochondrial DNA content”: 6.9 ± 2.9% (HepG2; qPCR; 20.0 µM, 10 days, 3; reference: untreated).
With `CCOc1nc(-c2cccc(O)c2)cc(-c2cc3cc(Cl)ccc3nc2N2CCOCC2)c1C#N` the selectivity ratio was 0.492 (HepG2; MTT; reference: WI-38 EC50 over HepG2 IC50).
With `CC(=NN=c1[nH]c(C)cs1)c1c(O)c2ccccc2oc1=O` the selectivity index was greater than 2.35 (HepG2; cell growth, MTT; reference: IC50 BJ-1 over HepG2).
For `COc1ccc(NC(=O)c2c(Nc3ccccc3)sc(C(=O)NN=Cc3ccc(OC)c(O)c3)c2NC(C)=O)cc1`, “cells in S phase” read 31.1 ± 2.93% (HepG2; flow cytometry; IC50, 24 h).
The cytotoxicity of `CC(=O)c1nn(-c2ccccc2Cl)/c(=N/N=C(\C)c2ccc(NC(=O)c3ccccc3)cc2)s1` is reported as 93.9% (HepG2; MTT; 5 µM).
With `COc1ccc2c(c1)C(=O)C(=O)N2CCn1cnc2c(N)ncnc21` the IC50 was 26.2 ± 3.4 µg/mL (HepG2; cell growth, SRB; 72 h).
The cytotoxicity of `CCOC(=O)c1nn(-c2cccc(Cl)c2)/c(=N/N=C(\C)c2ccc(NC(=O)c3ccccc3)cc2)s1` is reported as 97.2% (HepG2; MTT; 2.5 µM).
`COc1ccc(-n2nc(C(C)=O)s/c2=N\N=C(/C)c2ccc(NC(=O)c3ccc(Cl)cc3)cc2)cc1` has a toxicity of 85.9% (HepG2; 0.312 µM).
The selectivity index of `CCC1=C(CC)/C(=C/NC23CC4CC(CC(C4)C2)C3)N=C1c1cc2ccccc2[nH]1` is reported as 99.8 (HepG2; reference: HepG2 IC50 over P. falciparum D6 IC50).
`Cc1ccc(C(=O)CC#N)cc1` gave a labelling of 6.99% (UCHL1; covalent, intact protein LC-MS; 12.5 µM).
`CCOC(=O)c1cccc(NC(=O)c2sccc2S(=O)(=O)N(C)c2ccc(OCC)cc2)c1`: activity “inactive” (HepG2; SRE promoter reporter; concentration not given).
`CC(=O)c1nn(-c2ccc(Cl)cc2)/c(=N/N=C(\C)c2ccc(NC(=O)c3ccc(C)cc3)cc2)s1` has a viability of 45.2% (HepG2; 0.156 µM).
For `CCOC(=O)c1cccc(NC(=O)c2sccc2S(=O)(=O)N(C)c2ccc(OCC)c(OCC)c2)c1`, the EC50 was greater than 25 µM (HepG2; SRE promoter reporter, activator, luciferase reporter).
With `O=C(NCCN1CCCC1)c1cc(-c2ccc(CN3CCOCC3)cc2)nc2ccc(F)cc12` the EC50 was 41 µM (HepG2; cytotoxicity, resazurin).
With `CC(C)NC(=O)C(C#N)=Cc1cc(F)ccc1F` the labelling was 22.4% (UCHL1; covalent, intact protein LC-MS; 12.5 µM).
`COc1ccc(-n2nc(C(C)=O)s/c2=N\N=C(/C)c2ccc(NC(=O)c3ccccc3)cc2)cc1` has a viability of 3.04% (HepG2; 5 µM).
With `CC(=NN=C1NC(=O)C(C)S1)c1c(O)c2ccccc2oc1=O` (stereo not shown) the selectivity index was greater than 2.36 (HepG2; cell growth, MTT; reference: IC50 BJ-1 over HepG2).
For `c1cnc2c(c1)ccc1cccnc12`, “TNF-α mRNA level” read “increased” (HepG2; 25 µg/mL; reference: untreated).
For `Cc1nc2ccccc2n(CC(=O)Nc2ccc(C(=O)Nc3cccc(Cl)c3)cc2)c1=O`, the viable cells was 63.5 ± 3.18% (HepG2; Annexin V-FITC/PI staining; 2.3 µM).
`CC(=NN=c1sc(N=Nc2ccccc2)c(C)n1C)c1c(O)c2ccccc2oc1=O` has a selectivity index of greater than 1.56 (HepG2; cell growth, MTT; reference: IC50 BJ-1 over HepG2).
`CC(=O)c1nn(-c2ccc(C)cc2)/c(=N/N=C(\C)c2ccc(NC(=O)c3ccccc3)cc2)s1` gave a cytotoxicity of 93.2% (HepG2; MTT; 2.5 µM).
`CN1C(=O)C(=O)c2cc3c(c4c2c1cc1ccccc14)OCO3` has an inhibition of less than 50% (HepG2; cytotoxicity, MTT; 50 µg/mL, 48 h).
For `CCS(=O)(=O)c1nc(S(=O)(=O)c2ccccc2Cl)c(N2CC3(CC3)C2)s1`, the EC50 was greater than 13.2 µM (HepG2; Nrf2 activation, activator).
Under “mitochondrial DNA content”, `N#C[C@@]1(c2ccc3c(N)ncnn23)O[C@H](CO)[C@@H](O)[C@H]1O` is recorded as 90.3 ± 21.9% (HepG2; qPCR; 10.0 µM, 10 days, 3; reference: untreated).
With `O=C(CCc1ccc(O)cc1)c1c(O)cc(O)cc1O` the IC50 was 239 µM (HepG2; cell viability, MTT; 24 h).
With `CCCOc1nc(-c2cccc(O)c2)cc(-c2cc3cc(Cl)ccc3nc2N2CCOCC2)c1C#N` the selectivity ratio was 0.726 (HepG2; MTT; reference: WI-38 EC50 over HepG2 IC50).
`CCOC(=O)/C=C\C(=O)OCC` — result for “point of departure”: 263 µM (HepG2; high content imaging, refers to: cell count; 24 h, distribution mode 2).
For `COc1ccc(NC(=O)c2c(Nc3ccccc3)sc(C#N)c2NC(=O)CNc2ccc(Cl)cc2)cc1`, the Bcl-2 level was 408 ± 18.5 pg/mL (HepG2; ELISA; IC50, 24 h).
Under “point of departure”, `COc1cccc2c1C(=O)c1c(O)c3c(c(O)c1C2=O)C[C@@](O)(C(=O)CO)C[C@@H]3O[C@H]1C[C@H](N)[C@H](O)[C@H](C)O1` is recorded as 0.219 µM (HepG2; refers to: PERK protein; 24 h, distribution mode 2).
With `CCOC(=O)c1nn(-c2cccc(Cl)c2)/c(=N/N=C(\C)c2ccc(NC(=O)c3ccc(Cl)cc3)cc2)s1` the cytotoxicity was 97.1% (HepG2; MTT; 2.5 µM).
For `O=C(O)Cc1ccccc1Nc1c(Cl)cccc1Cl`, “point of departure” read 32.4 µM (HepG2; refers to: HIF1alpha level; 6 h, mode 1 of PoD distribution).
`CCn1c(C)c(C(C)=O)sc1=NN=C(C)c1c(O)c2ccccc2oc1=O` gave a selectivity index of greater than 1.6 (HepG2; cell growth, MTT; reference: IC50 BJ-1 over HepG2).
For `CCc1ccc(CCOc2ccc(CC3SC(=O)NC3=O)cc2)nc1` (stereo not shown), “point of departure” read 0.457 µM (HepG2; MTT, refers to: MTT response; 24 h, distribution mode 1).
For `Clc1ccc(C2(c3ccc(-c4ccnc5[nH]ccc45)cc3)CCNCC2)cc1`, the mRNA level was 7 fold (HepG2; qPCR, refers to: CYR61; 5 µM, 4 h; reference: DMSO).
`CC(C)(C)c1cc(O)ccc1O`: “point of departure” 138 µM (HepG2; high content imaging, refers to: DNA structure; 24 h, representative mode).
The cytotoxicity of `CC(=O)Nc1ccc(/C(C)=N/N=c2\sc(C(C)=O)nn2-c2ccc(C)cc2)cc1` is reported as 14% (HepG2; MTT; 5 µM).

Excerpt of the above:
With `CC(C)NC(=O)C(C#N)=Cc1cc(F)ccc1F` the labelling was 22.4% (UCHL1; covalent, intact protein LC-MS; 12.5 µM).
`COc1ccc(-n2nc(C(C)=O)s/c2=N\N=C(/C)c2ccc(NC(=O)c3ccccc3)cc2)cc1` has a viability of 3.04% (HepG2; 5 µM).
With `CC(=NN=C1NC(=O)C(C)S1)c1c(O)c2ccccc2oc1=O` (stereo not shown) the selectivity index was greater than 2.36 (HepG2; cell growth, MTT; reference: IC50 BJ-1 over HepG2).
For `c1cnc2c(c1)ccc1cccnc12`, “TNF-α mRNA level” read “increased” (HepG2; 25 µg/mL; reference: untreated).
For `Cc1nc2ccccc2n(CC(=O)Nc2ccc(C(=O)Nc3cccc(Cl)c3)cc2)c1=O`, the viable cells was 63.5 ± 3.18% (HepG2; Annexin V-FITC/PI staining; 2.3 µM).
`CC(=NN=c1sc(N=Nc2ccccc2)c(C)n1C)c1c(O)c2ccccc2oc1=O` has a selectivity index of greater than 1.56 (HepG2; cell growth, MTT; reference: IC50 BJ-1 over HepG2).
